# Experimental data from different studies.
# Protocols differ between the studies behind these lines. “And” joins repeats or separate records; there may be more than shown.
# Genome polyprotein NS3 helicase domain: Genome polyprotein, NS3 helicase domain (Hepatitis C virus genotype 1b, UniProt Q9WMX2)
# UniProt P32247, sequence (whole entry, looked up): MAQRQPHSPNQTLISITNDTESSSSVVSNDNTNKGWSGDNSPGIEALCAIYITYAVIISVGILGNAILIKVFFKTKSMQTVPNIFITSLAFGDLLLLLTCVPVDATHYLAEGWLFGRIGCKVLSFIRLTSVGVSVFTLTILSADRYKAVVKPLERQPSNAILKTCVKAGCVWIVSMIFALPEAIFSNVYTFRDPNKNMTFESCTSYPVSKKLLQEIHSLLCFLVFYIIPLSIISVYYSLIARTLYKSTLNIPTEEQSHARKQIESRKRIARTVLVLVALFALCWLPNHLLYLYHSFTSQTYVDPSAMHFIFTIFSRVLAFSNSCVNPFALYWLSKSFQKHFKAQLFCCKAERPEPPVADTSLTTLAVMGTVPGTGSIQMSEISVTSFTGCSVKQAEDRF
# UniProt Q9HBY8, sequence (whole entry, unmodified, looked up): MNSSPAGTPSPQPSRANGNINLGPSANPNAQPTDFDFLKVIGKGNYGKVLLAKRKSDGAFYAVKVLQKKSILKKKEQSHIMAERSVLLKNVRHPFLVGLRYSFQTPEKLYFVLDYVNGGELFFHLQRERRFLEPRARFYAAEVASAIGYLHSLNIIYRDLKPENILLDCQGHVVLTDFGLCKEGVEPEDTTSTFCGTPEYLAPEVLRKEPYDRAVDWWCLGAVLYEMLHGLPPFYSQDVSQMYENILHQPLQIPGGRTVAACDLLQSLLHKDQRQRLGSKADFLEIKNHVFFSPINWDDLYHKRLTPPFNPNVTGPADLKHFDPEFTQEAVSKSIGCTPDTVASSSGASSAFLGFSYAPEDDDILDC
# UniProt P53778, sequence (whole entry, looked up): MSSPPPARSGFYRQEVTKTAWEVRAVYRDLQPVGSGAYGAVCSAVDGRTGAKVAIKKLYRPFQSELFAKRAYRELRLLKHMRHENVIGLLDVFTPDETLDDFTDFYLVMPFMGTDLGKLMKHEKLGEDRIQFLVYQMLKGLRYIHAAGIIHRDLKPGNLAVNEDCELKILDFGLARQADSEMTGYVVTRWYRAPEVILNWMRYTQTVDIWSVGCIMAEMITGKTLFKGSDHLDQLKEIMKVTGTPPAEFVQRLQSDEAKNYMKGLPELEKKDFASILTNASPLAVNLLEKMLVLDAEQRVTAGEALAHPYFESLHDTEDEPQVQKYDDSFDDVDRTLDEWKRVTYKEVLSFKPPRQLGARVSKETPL
# UniProt Q92633, sequence (whole entry, looked up): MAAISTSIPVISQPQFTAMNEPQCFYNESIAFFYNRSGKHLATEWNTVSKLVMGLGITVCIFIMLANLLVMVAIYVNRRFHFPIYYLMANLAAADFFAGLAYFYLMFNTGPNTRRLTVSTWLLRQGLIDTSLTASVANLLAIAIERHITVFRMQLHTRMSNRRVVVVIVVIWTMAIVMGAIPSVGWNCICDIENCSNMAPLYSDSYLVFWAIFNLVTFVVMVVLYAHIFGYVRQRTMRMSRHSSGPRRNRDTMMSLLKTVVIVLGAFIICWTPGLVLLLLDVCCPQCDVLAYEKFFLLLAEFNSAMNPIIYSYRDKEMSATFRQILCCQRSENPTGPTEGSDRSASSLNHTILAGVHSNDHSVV
# UniProt P15735, sequence (whole entry, looked up): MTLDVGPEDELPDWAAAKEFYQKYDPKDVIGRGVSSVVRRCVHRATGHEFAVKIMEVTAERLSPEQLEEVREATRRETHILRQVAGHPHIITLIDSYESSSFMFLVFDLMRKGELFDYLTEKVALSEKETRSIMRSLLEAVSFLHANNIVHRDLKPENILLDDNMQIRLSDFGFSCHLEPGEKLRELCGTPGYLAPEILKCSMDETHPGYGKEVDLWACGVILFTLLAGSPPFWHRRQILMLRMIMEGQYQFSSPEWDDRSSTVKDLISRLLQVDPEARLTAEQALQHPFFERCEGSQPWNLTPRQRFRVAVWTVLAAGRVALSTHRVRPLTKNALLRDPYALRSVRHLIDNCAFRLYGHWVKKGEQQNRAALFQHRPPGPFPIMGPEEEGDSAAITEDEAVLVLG
Compound,target,assay,test system,conditions,inhibition
O=C(Nc1cccnn1)N1CCC(=Cc2cccc(Oc3ccc(C(F)(F)F)cn3)c2)CC1,"PHKG2 (Homo sapiens, UniProt P15735)","kinase activity, inhibitor",,"50 µM, human",-3%
CC(=O)NC[C@H]1[C@H](O)[C@H](O)[C@@H]2[C@H](O)C[C@@H](CO)N21,Spodoptera litura β-N-acetylglucosaminidase,,crude enzyme,"0.000784 µM, run 1, with: p-nitrophenyl GlcNAc",6.97%
FC(F)(F)c1cccc(Nc2nc(NCCOc3ccccc3)nc3[nH]cnc23)c1,"MAPK12 (Homo sapiens, UniProt P53778)",Z'-LYTE or Adapta,,5 µM,9%
CN1CCN(c2cc(-c3ccncc3)c(-c3ccc4ccccc4c3)nn2)CC1,"LPAR1 (Homo sapiens, UniProt Q92633)",,,10 µM,-16.7%
N.N.[Cl][Pt][Cl],Genome polyprotein NS3 helicase domain,"DNA binding, inhibitor",hepatitis C virus,"100 µM, with: Cy5-dT15 DNA",1%
COc1ccc(N2C(=O)N(c3c(C)cccc3Cl)Cc3cnc(Nc4ccc(C5CCN(C)CC5)cc4OC)nc32)nc1,"SGK2 (Homo sapiens, UniProt Q9HBY8)",kinase activity,,0.5 µM,16%
CN(C(=O)n1cnc(-c2ccc[n+]([O-])c2)c1)C1CCCCC1,"BRS3 (Homo sapiens, UniProt P32247)",radioligand binding,,10 µM,4%
N#CCCN.N#CCCN.O=C(O)/C=C/C(=O)O,Genome polyprotein NS3 helicase domain,"DNA binding, inhibitor",hepatitis C virus,"100 µM, with: Cy5-dT15 DNA",4%
O=C(Nc1cnccc1Cl)N1CCN(Cc2ccc3c(c2)OC(F)(F)O3)CC1,somatostatin sst1 receptor,,,concentration not given,10% and 9%
COc1cc(Nc2ncc(F)c(Nc3ccc4c(n3)NC(=O)C(C)(C)O4)n2)cc(OC)c1OC,"PKN2 (Homo sapiens, UniProt Q16513)",KINOMEscan,,10 µM,70%
CC(C)C[C@H]1C(=O)N2CCC[C@H]2[C@]2(O)O[C@](NC(=O)[C@@H]3C=C4c5cccc6[nH]c(Br)c(c56)C[C@H]4N(C)C3)(C(C)C)C(=O)N12.CS(=O)(=O)O,Genome polyprotein NS3 helicase domain,"DNA binding, inhibitor",hepatitis C virus,"100 µM, with: Cy5-dT15 DNA",2%
